# Assay results pooled from the literature.
Compound,test,system,conditions,AUC(0-inf)
Nc1nc(Cl)nc2c1ncn2Cc1cc(OCC(F)F)cc(OC(F)F)c1,,"Sprague-Dawley rat, plasma","intravenous, 2.5 mg/kg",10600 ng·h/mL
CC12CC3CC(C)(C1)CC(NC(=O)Nc1ccc(C(=O)N4CCCC(C(N)=O)C4)cc1)(C3)C2 (centres unmarked),,"Sprague-Dawley rat, plasma","oral, 10 mg/kg",0.32 µM·h
CC(=O)Oc1c2c(c3ccc4c(c3c1OC(C)=O)C=CC(=O)C4(C)C)OC[C@@H]2C,,"female Sprague-Dawley rat, serum","intravenous, 10 mg/kg",15900 ng·h/mL
CSCOC1C(=O)C2(C)C(OCSC)CC3OCC3(OC(C)=O)C2C(OC(=O)c2ccccc2)C2(O)CC(OC(=O)C(O)C(C=C(C)C)NC(=O)OC(C)(C)C)C(C)=C1C2(C)C (centres unmarked),,"male Sprague-Dawley rat, plasma","intravenous, 2 mg/kg",266 ng·h/mL
CCNC(=O)[C@@H]1CCCN1C(=O)[C@H](CCCNC(=N)N)NC(=O)[C@H](CC(C)C)NC(=O)[C@@H](CC(C)C)NC(=O)[C@H](Cc1ccc(O)cc1)NC(=O)[C@H](CO)NC(=O)[C@H](Cc1c[nH]c2ccccc12)NC(=O)[C@H](Cc1c[nH]cn1)NC(=O)[C@@H]1CCC(=O)N1,,"male Sprague-Dawley rat, plasma","subcutaneous, 12.5 mg/kg, single dose",9840 ng·h/mL
O=C(N[C@@H](CC1CCCCC1)C(=O)N[C@@H](C[C@H]1CCNC1=O)C(=O)C(=O)NC1CC1)OCc1cccc(Cl)c1,,"female Sprague-Dawley rat, plasma","oral, 10 mg/kg, single dose",4200 ng·h/mL
C[Si]1(C)CNC(=O)c2ccccc21,,"rat, plasma","intravenous, 1 mg/kg, single dose",574 ng·h/mL
"CNC(=O)N[C@]1(C)CCC[C@@]2(C)C3CC[C@@]4(C)C[C@]3(CCC21)CC4=O (single isomer, unassigned)",,"male Sprague-Dawley rat, plasma","intravenous, 2 mg/kg",1090 ng·h/mL
CCCN(c1ccc(C(=O)NCCC(=O)O)cc1)S(=O)(=O)c1cc(C)c(-c2ccc(C(C)(C)C)cc2)c(C)c1,,"rat, plasma","intravenous, 2 mg/kg",1440 ng·h/mL
Cc1cc(N2CCC(C#N)(C3(C)CC3)C2=O)cc(C(=O)NCc2cc(F)cc(-c3cnn(C)c3)c2)n1 (racemic),,"male Sprague-Dawley rat, plasma","oral, 3 mg/kg",5.3 µM·h
Cn1cc(-c2cc(N3CCCCS3(=O)=O)ccc2N[C@H]2CC[C@H](C)CC2)c2cc[nH]c2c1=O (stereo in doubt),,"Sprague-Dawley rat, plasma","intravenous, 1 mg/kg",300 ng·h/mL
CC12CC3CC(C)(C1)CC(NC(=O)Nc1ccc(C(=O)N4CCC[C@H](C(N)=O)C4)cc1F)(C3)C2,,"Sprague-Dawley rat, plasma","oral, 50 mg/kg",8.02 µM·h
Cn1cc(-c2cc(N3CCCS3(=O)=O)ccc2N[C@H]2CC[C@H](C)CC2)c2cc[nH]c2c1=O,,"Sprague-Dawley rat, plasma","intravenous, 1 mg/kg",261 ng·h/mL
COc1cc(NC(C)=O)c2c(c1O)-c1c(OC)c(OC)cc3c1C(C2)N(C)CC3 (centres unmarked),HPLC,"male Wistar rat, plasma","intravenous, 100 mg/kg",38800 ng·h/mL

# A few entries again:
Compound,test,system,conditions,AUC(0-inf)
CC(=O)Oc1c2c(c3ccc4c(c3c1OC(C)=O)C=CC(=O)C4(C)C)OC[C@@H]2C,,"female Sprague-Dawley rat, serum","intravenous, 10 mg/kg",15900 ng·h/mL
